Experimental data gathered from unrelated publications.
Compare with care: the assays were run in different laboratories. ± gives the spread as reported.
Cell line: RAW264.7

COc1ccc(OC)c(/C=N\NC(=O)[C@]2(C)C3CC[C@]4(C)C(C(=O)C=C5C6[C@@H](C)[C@H](C)CC[C@]6(C)CC[C@]54C)[C@@]3(C)CC[C@H]2OC(C)=O)c1 (stereo partly drawn)
inhibition (NO release, inhibitor, Griess; 10 µM, 24 h, LPS-stimulated): 89.7%

CC[C@H](C)[C@H](NC(=O)[C@H](CCCCN)NC(=O)[C@H](CC(N)=O)NC(=O)CNC(=O)[C@@H](NC(=O)[C@H](C)NC(=O)[C@H](CCCNC(=N)N)NC(=O)[C@H](CC(C)C)NC(=O)[C@H](CCCCN)NC(=O)[C@H](CCCCN)NC(=O)[C@H](CCCCN)NC(=O)[C@H](C)NC(=O)[C@H](CCCCN)NC(=O)[C@@H]1CSSC[C@H](NC(=O)[C@H](CCCNC(=N)N)NC(=O)CN)C(=O)N[C@@H](CC(N)=O)C(=O)N[C@@H](CC(C)C)C(=O)N[C@@H](CC(C)C)C(=O)N1)C(C)C)C(=O)N[C@@H](CCCCN)C(=O)N[C@@H](CCC(=O)O)C(=O)N[C@H](C(=O)N[C@@H](CCCCN)C(=O)N[C@@H](CC(N)=O)C(=O)N[C@H](C(=O)N[C@H](C(=O)N[C@@H](Cc1ccccc1)C(=O)N[C@@H](CC(N)=O)C(=O)N[C@@H](CCCNC(=N)N)C(=O)O)C(C)C)C(C)C)[C@@H](C)CC
IL-6 production (20 µM, 2 h pretreatment, with: LPS 24 h after washing): decreased

CC(=O)O[C@@H]1CC[C@@]2(C)C(CC[C@]3(C)C2C(=O)C=C2C4[C@@H](C)[C@H](C)CC[C@]4(C)CC[C@]23C)[C@@]1(C)C(=O)N/N=C\c1ccccc1O (stereo partly drawn)
inhibition (NO release, inhibitor, Griess; 10 µM, 24 h, LPS-stimulated): 67.7%

CN(CCO)c1ccc(/C=C/C(=O)C(c2ccccc2)c2ccccc2)cc1
inhibition (IL-6 release, inhibitor, ELISA; 10 µM, LPS-stimulated): 73 to 89%

CCOC(=O)c1csc2nc(-c3cccc(NC(=O)c4cc5cc(NC(=O)c6ccco6)ccc5n4Cc4ccc(C(F)(F)F)cc4)c3)cn12
intracellular Fe2+ level (10 µM, with: LPS; reference: control): increased

O=[N+]([O-])c1cccc(S(=O)(=O)NC[C@@H](O)[C@@H]2CCc3cc(F)ccc3O2)c1
NO production (inhibitor, measured: nitrite; 100 and 200 µM, pretreatment, with: LPS): inhibited

CCOC(=O)c1nc2cc(Cl)c(Cl)cc2nc1N1CCN(C(=O)Nc2ccc(N3CCNCC3)cc2)CC1
KEAP1 protein level (Western blot; concentration not given, 3 h pretreatment, with: LPS, 4 h): decreased

C[C@H]1[C@H](C)CC[C@]2(C(=O)O)CC[C@]3(C)C(=CC[C@@H]4[C@@]5(C)CC[C@H](O[C@@H]6O[C@@H](C)[C@H](O[C@@H]7O[C@@H](C)[C@H](O)[C@@H](O)[C@H]7O)[C@@H](O)[C@H]6O)C(C)(C)[C@@H]5CC[C@]43C)[C@H]12
EC50 (LPS-induced NO production, inhibitor, Griess reaction; 24 h, with: 100 ng/mL LPS): 16 ± 3 µM

C/C=C(/NC(=O)CCCCCCC)C(=O)N/C(=C/C)C(=O)N[C@H](CC(C)C)C(=O)N[C@@H](CC(C)C)C(=O)Nc1ccc(C(=O)N[C@H](C(=O)O)[C@@H](C)O)cc1
intracellular ROS (DCFH-DA flow cytometry; 20 µM pretreatment, with: LPS): decreased

C=CC(=O)Nc1ccc2c(c1)cc(C(=O)Nc1cccc(-c3cn4c(C(=O)OCC)csc4n3)c1)n2Cc1ccc(C(F)(F)F)cc1
IC50 (TNF-α release, inhibitor, ELISA; 24 h, LPS-stimulated): 62.8 µM

CC(=O)O[C@@H]1CC[C@@]2(C)C(CC[C@]3(C)C2C(=O)C=C2C4[C@@H](C)[C@H](C)CC[C@]4(C)CC[C@]23C)[C@@]1(C)C(=O)OCc1cn(CC(=O)Oc2cc(C)ccc2C(C)C)nn1 (stereo partly drawn)
inhibition (NO release, inhibitor, Griess; 10 µM, 24 h, LPS-stimulated): 85.7%

C[C@H]1[C@H](C)CC[C@]2(C(=O)O)CC[C@]3(C)C(=CC[C@@H]4[C@@]5(C)CC[C@H](O[C@@H]6O[C@@H](C)[C@H](O)[C@@H](O)[C@H]6O)C(C)(C)[C@@H]5CC[C@]43C)[C@H]12
EC50 (LPS-induced NO production, inhibitor, Griess reaction; 24 h, with: 100 ng/mL LPS): 10.5 ± 0.3 µM

CCOC(=O)c1csc2nc(-c3cccc(NC(=O)c4cc5cc(NC(=O)C(C)Cl)ccc5n4Cc4ccc(C(F)(F)F)cc4)c3)cn12 (stereo not drawn)
intracellular MDA level (10 µM, with: LPS; reference: control): increased

CC(=O)O[C@@H]1CC[C@@]2(C)C(CC[C@]3(C)C2C(=O)C=C2C4[C@@H](C)[C@H](C)CC[C@]4(C)CC[C@]23C)[C@@]1(C)C(=O)N/N=C\c1ccccc1 (stereo partly drawn)
inhibition (NO release, inhibitor, Griess; 10 µM, 24 h, LPS-stimulated): 59.2%

CN(C)C1CCN(c2nc3oc4ccccc4c(=O)c3s2)CC1
IC50 (TNF-α release, inhibitor, ELISA; 48 h, LPS-stimulated): 38.6 µM

COc1ccc(/C=N\NC(=O)[C@]2(C)C3CC[C@]4(C)C(C(=O)C=C5C6[C@@H](C)[C@H](C)CC[C@]6(C)CC[C@]54C)[C@@]3(C)CC[C@H]2OC(C)=O)cc1 (stereo partly drawn)
inhibition (NO release, inhibitor, Griess; 10 µM, 24 h, LPS-stimulated): 80.7%

CCc1c(-c2ccc(O)cc2)nn(-c2ccc(O)cc2)c1-c1ccc(OCCN2CCCCC2)cc1
EC50 (cytotoxicity, Alamar blue): 11.6 ± 0.9 µM

CC(=O)O[C@@H]1CC[C@@]2(C)C(CC[C@]3(C)C2C(=O)C=C2C4[C@@H](C)[C@H](C)CC[C@]4(C)CC[C@]23C)[C@@]1(C)C(=O)N/N=C\c1ccc2c(c1)OCO2 (stereo partly drawn)
inhibition (NO release, inhibitor, Griess; 10 µM, 24 h, LPS-stimulated): 70.9%

COC(=O)C1OC(Oc2c(-c3ccccc3)oc3cc(O)c(O)c(O)c3c2=O)C(O)C(O)C1O (stereo not drawn)
IL-1β level (ELISA; 10 µM, with: LPS): 189 pg/mL

CC(=O)O[C@@H]1CC[C@@]2(C)C(CC[C@]3(C)C2C(=O)C=C2C4[C@@H](C)[C@H](C)CC[C@]4(C)CC[C@]23C)[C@@]1(C)c1nnc(SCC(=O)OC2CC(C)CCC2C(C)C)o1 (stereo partly drawn)
inhibition (NO release, inhibitor, Griess; 10 µM, 24 h, LPS-stimulated): 74.4%

Cc1ccc(NCc2cn(-c3ccc(S(N)(=O)=O)cc3)nc2-c2ccc(OCc3ccccc3)cc2)cc1
inhibition (TNF-α release, inhibitor, ELISA; 20 µM, LPS-stimulated): 71.5%
